Published values collected from several papers.
Every numbered part comes from another study and shows a few of its results, in no order. “And” joins repeats or separate records; there may be more than shown.
Sequence of UniProt P10721 (whole entry, unmodified, looked up): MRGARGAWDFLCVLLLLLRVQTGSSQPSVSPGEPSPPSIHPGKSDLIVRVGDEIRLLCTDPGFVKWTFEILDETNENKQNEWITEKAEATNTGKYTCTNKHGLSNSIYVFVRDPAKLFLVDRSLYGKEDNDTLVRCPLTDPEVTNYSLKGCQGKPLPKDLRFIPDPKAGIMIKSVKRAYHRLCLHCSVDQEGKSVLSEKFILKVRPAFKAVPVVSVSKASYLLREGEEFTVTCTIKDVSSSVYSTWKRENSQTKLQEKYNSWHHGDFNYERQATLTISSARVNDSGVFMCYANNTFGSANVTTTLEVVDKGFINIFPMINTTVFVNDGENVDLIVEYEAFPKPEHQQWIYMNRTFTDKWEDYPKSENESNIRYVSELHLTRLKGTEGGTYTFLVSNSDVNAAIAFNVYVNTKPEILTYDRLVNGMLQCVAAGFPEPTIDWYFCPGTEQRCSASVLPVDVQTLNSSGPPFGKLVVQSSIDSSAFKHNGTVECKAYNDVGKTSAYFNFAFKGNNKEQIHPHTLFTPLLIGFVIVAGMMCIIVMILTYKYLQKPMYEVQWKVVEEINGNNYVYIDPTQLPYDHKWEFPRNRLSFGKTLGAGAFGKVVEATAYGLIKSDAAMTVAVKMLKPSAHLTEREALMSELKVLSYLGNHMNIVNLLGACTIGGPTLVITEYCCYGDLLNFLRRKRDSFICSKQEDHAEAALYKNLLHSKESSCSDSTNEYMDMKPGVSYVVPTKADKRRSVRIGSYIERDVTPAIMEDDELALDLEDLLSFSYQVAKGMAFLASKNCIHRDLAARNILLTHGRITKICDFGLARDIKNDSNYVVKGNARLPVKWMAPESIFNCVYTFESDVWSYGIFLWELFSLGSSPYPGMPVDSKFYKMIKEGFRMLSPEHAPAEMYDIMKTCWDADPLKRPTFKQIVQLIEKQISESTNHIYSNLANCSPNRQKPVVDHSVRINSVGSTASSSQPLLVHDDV
Sequence of UniProt Q13976 (whole entry, looked up): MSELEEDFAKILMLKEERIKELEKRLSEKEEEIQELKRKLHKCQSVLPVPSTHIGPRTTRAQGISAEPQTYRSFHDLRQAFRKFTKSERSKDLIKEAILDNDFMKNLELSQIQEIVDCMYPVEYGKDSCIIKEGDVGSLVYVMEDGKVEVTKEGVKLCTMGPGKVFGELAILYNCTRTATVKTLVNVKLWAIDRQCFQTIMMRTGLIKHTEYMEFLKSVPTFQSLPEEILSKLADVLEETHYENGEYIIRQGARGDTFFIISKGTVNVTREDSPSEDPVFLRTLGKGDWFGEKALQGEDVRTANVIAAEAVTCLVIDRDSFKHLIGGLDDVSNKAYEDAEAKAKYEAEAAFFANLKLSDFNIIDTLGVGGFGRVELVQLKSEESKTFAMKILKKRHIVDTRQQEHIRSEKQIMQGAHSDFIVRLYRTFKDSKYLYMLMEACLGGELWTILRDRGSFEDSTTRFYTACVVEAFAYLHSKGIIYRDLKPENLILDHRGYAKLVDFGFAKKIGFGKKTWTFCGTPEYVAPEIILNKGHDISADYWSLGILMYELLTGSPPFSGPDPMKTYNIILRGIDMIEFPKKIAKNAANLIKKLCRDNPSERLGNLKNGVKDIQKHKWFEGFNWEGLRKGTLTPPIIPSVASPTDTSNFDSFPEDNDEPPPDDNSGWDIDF
Sequence of UniProt P07948 (whole entry, looked up): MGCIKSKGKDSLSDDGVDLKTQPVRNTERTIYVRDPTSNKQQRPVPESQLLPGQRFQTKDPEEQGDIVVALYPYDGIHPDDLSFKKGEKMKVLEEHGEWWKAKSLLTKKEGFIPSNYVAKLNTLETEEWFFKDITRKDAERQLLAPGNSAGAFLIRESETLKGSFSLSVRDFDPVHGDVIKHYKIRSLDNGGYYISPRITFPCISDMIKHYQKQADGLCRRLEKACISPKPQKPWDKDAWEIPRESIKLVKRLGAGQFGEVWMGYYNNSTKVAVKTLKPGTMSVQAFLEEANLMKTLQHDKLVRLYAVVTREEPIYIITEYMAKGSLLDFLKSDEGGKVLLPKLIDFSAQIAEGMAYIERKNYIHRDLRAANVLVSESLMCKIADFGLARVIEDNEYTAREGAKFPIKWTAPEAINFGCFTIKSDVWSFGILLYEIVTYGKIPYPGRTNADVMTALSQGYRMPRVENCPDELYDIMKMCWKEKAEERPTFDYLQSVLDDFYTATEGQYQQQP
Sequence of UniProt Q9UIK4 (whole entry, looked up): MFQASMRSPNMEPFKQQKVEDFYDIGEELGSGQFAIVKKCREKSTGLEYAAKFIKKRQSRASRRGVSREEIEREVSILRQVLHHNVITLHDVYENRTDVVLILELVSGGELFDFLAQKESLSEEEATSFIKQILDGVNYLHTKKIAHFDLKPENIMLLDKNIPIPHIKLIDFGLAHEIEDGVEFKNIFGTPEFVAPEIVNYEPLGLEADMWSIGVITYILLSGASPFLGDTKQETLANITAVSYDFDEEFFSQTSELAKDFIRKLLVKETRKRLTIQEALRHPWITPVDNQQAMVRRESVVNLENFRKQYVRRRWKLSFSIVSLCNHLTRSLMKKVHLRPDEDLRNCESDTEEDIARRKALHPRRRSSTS
Sequence of UniProt Q96RR4 (whole entry, looked up): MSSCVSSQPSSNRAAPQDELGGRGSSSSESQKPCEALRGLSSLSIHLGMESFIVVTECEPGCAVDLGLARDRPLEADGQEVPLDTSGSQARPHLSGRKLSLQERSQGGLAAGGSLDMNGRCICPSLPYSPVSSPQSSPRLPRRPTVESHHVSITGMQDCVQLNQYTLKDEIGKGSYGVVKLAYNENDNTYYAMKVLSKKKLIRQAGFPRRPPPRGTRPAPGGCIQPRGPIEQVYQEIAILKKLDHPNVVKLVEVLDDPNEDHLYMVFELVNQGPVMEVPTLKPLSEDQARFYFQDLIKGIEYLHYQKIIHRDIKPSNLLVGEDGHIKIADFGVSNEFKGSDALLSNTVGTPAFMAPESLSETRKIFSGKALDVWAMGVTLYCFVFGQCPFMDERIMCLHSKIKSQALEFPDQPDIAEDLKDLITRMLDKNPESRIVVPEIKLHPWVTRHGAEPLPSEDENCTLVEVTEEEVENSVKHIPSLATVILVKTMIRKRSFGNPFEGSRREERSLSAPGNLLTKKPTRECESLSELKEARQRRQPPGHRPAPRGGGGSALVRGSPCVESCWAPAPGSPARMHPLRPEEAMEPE
Sequence of UniProt Q02763 (whole entry, looked up): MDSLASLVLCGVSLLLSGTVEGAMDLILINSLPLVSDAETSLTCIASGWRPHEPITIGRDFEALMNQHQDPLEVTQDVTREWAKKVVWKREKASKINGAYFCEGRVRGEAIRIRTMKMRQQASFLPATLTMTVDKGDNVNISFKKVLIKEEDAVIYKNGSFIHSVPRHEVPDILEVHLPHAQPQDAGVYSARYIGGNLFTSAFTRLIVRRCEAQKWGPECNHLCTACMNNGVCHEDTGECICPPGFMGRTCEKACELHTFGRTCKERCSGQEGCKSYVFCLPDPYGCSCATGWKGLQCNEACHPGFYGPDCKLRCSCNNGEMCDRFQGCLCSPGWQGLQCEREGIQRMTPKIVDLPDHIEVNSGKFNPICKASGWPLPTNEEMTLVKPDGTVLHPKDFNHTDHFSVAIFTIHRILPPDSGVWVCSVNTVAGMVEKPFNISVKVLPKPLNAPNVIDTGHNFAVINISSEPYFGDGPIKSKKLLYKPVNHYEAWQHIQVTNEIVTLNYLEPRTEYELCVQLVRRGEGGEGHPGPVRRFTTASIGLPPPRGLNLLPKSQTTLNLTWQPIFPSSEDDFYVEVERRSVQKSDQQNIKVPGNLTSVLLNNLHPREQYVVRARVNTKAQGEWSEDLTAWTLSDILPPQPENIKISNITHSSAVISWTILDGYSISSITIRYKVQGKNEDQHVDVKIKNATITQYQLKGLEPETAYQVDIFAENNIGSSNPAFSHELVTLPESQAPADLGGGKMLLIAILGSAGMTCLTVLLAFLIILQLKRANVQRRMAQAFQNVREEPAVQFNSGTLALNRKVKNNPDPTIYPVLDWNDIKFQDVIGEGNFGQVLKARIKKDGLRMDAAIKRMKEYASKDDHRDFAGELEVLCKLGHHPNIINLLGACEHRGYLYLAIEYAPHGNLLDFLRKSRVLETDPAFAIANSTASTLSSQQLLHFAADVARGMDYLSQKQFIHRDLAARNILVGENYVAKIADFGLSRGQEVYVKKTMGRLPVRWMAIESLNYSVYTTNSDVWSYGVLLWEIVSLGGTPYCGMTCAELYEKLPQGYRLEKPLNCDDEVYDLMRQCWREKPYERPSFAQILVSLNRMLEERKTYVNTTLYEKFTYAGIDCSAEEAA
Sequence of UniProt Q8N752 (whole entry, looked up): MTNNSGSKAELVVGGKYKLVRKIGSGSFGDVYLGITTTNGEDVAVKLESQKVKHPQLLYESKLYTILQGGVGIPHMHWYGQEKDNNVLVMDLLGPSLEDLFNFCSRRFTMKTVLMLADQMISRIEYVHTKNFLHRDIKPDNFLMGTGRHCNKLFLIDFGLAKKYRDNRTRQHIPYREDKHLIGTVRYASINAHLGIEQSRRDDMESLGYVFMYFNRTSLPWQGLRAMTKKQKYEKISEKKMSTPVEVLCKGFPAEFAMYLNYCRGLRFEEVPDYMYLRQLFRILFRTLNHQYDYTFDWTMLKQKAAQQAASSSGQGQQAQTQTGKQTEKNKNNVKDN
Sequence of UniProt P51955 (whole entry, looked up): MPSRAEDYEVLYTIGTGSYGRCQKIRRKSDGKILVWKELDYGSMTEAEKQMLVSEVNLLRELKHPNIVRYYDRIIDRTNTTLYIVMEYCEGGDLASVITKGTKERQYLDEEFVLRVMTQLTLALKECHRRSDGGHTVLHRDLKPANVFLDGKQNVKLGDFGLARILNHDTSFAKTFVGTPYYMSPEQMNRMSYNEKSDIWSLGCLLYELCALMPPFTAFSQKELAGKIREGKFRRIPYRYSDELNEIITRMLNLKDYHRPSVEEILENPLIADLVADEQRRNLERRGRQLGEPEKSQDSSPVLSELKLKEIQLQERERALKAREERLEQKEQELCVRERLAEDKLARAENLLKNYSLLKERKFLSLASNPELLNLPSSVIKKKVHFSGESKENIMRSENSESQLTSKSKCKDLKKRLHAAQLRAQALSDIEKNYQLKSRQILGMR

Set 1
Compound: Cc1ccc(NC(=O)c2ccnc(C(F)(F)F)c2)cc1-c1cc(OCCO)nc(N2CCOCC2)c1
target | read-out | method | tested at | reference | remaining binding
MAPK13 (Homo sapiens, UniProt O15264) | binding | competition with immobilised ligand | 1 µM | – | 93%
STK32A (Homo sapiens, UniProt Q8WU08) | binding | – | 1 µM | – | 90%
FLT3 ITD mutant, human | – | scanMAX kinase panel | 1000 nM | control | 100%
MAPK12 (Homo sapiens, UniProt P53778) | binding | competition with immobilised ligand | 1 µM | – | 96%
CDC42BPB (Homo sapiens, UniProt Q9Y5S2) | binding | competition with immobilised ligand | 1 µM | – | 88%
RIPK1 (Homo sapiens, UniProt Q13546) | binding | – | 1 µM | – | 100%
KIT (Homo sapiens, UniProt P10721, T670I/V559D) | binding | – | 1 µM | – | 100%
TEK (Homo sapiens, UniProt Q02763) | binding | competition with immobilised ligand | 1 µM | – | 86%
EPHA4 (Homo sapiens, UniProt P54764) | binding | competition with immobilised ligand | 1 µM | – | 85%

Set 2 — method: competition with immobilised ligand; tested at: 0.1 µM
SMILES: Cc1cc(C)c(-n2ccn3nc(-c4cccnc4)cc23)cc1NC(=O)c1cc(C#N)cc(S(F)(F)(F)(F)F)c1
target | read-out | remaining binding [%]
CDKL2 (Homo sapiens, UniProt Q92772) | binding | 75.6
Ribosomal protein S6 kinase alpha-1, C-terminal kinase domain (RPS6KA1, Homo sapiens, UniProt Q15418) | cell-free assay | 100
CSNK1A1L (Homo sapiens, UniProt Q8N752) | cell-free assay | 88.4
GSK3A (Homo sapiens, UniProt P49840) | cell-free assay | 100
FGR (Homo sapiens, UniProt P09769) | cell-free assay | 84.9
CSK (Homo sapiens, UniProt P41240) | cell-free assay | 77.9
FLT3 (Homo sapiens, UniProt P36888, D835V/ITD) | cell-free assay | 87.7
MAPK9 (Homo sapiens, UniProt P45984) | cell-free assay | 66.1
GRK4 (Homo sapiens, UniProt P32298) | cell-free assay | 100
CAMK2G (Homo sapiens, UniProt Q13555) | cell-free assay | 93.4
PRKCH (Homo sapiens, UniProt P24723) | cell-free assay | 99.5
PIK3CA (Homo sapiens, UniProt P42336, C420R) | cell-free assay | 85.4
KIT (Homo sapiens, UniProt P10721, A829P) | cell-free assay | 50.9
EGFR (Homo sapiens, UniProt P00533, A750P/del747-749) | cell-free assay | 78.7
PIK3CB (Homo sapiens, UniProt P42338) | cell-free assay | 89.1
MAP3K4 (Homo sapiens, UniProt Q9Y6R4) | cell-free assay | 98.1
PDPK1 (Homo sapiens, UniProt O15530) | cell-free assay | 100
CDK16 (Homo sapiens, UniProt Q00536) | cell-free assay | 92.5
MAP3K12 (Homo sapiens, UniProt Q12852) | cell-free assay | 82.5
Receptor-type tyrosine-protein kinase FLT3, autoinhibited (FLT3, Homo sapiens, UniProt P36888) | cell-free assay | 84.1
NEK6 (Homo sapiens, UniProt Q9HC98) | cell-free assay | 93.9
FLT3 (Homo sapiens, UniProt P36888) | cell-free assay | 100
CDKL3 (Homo sapiens, UniProt Q8IVW4) | binding | 81.2
EGFR (Homo sapiens, UniProt P00533, G719S) | cell-free assay | 94.8

Set 3 — cell line: A-375; tested at: 100 µM; time: 18 h
Structure (SMILES) | viability
COc1cc2nccc(Oc3ccc(NC(=O)C4(C(=O)Nc5ccc(F)cc5)CC4)cc3)c2cc1OC | 49.3% and 51.9%
C[n+]1ccccc1/C=N/O | 100%
N#Cc1cc(-c2n[nH]c(-c3ccncc3)n2)ccn1 | 107%
CC1(C)O[C@@H]2C[C@H]3[C@@H]4CCC5=CC(=O)C=C[C@]5(C)[C@H]4[C@@H](O)C[C@]3(C)[C@]2(C(=O)CO)O1 | 98.8%
CC(C)=CCC[C@](C)(O[C@@H]1O[C@H](CO[C@@H]2O[C@@H](CO)[C@H](O)[C@H]2O)[C@@H](O)[C@H](O)[C@H]1O)[C@H]1CC[C@]2(C)[C@@H]1[C@H](O)C[C@@H]1[C@@]3(C)CC[C@H](O[C@@H]4O[C@H](CO)[C@@H](O)[C@H](O)[C@H]4O[C@@H]4O[C@H](CO)[C@@H](O)[C@H](O)[C@H]4O)C(C)(C)[C@@H]3CC[C@]12C | 105%
CC1=CC(=O)c2ccccc2C1=O | 15.7%
CCCCS(=O)(=O)N[C@@H](Cc1ccc(OCCCCC2CCNCC2)cc1)C(=O)O | 101%
CC1(C)O[C@@H]2C[C@H]3[C@@H]4C[C@H](F)C5=CC(=O)C=C[C@]5(C)[C@@]4(F)[C@@H](O)C[C@]3(C)[C@]2(C(=O)CO)O1 | 96.6%
NNc1nncc2ccccc12 | 112%

Set 4 — read-out: enzyme activity; mode: inhibitor; tested at: 0.5 µM; reference: control
Structure (SMILES): C[S+]([O-])c1ccc(-c2nc(-c3ccncc3)c(-c3ccc(F)cc3)[nH]2)cc1 (stereo not shown)
target | remaining activity
PRKCA (Homo sapiens, UniProt P17252) | 92.3%
GRK3 (Homo sapiens, UniProt P35626) | 98.2%
IKBKE (Homo sapiens, UniProt Q14164) | 98%
Protein kinase C beta type, isoform beta-I (PRKCB, Homo sapiens, UniProt P05771) | 74%
Cyclin-dependent kinase 5, with p25 (CDK5, Homo sapiens, UniProt Q00535) | 90.5%
STK10 (Homo sapiens, UniProt O94804) | 89.1%
Tyrosine-protein kinase Lyn, isoform B (LYN, Homo sapiens, UniProt P07948) | 99.1%
IKBKB (Homo sapiens, UniProt O14920) | 106%
OXSR1 (Homo sapiens, UniProt O95747) | 102%
PRKACA (Homo sapiens, UniProt P17612) | 98.9%
DAPK2 (Homo sapiens, UniProt Q9UIK4) | 102%
STK39 (Homo sapiens, UniProt Q9UEW8) | 93.9%
CAMKK2 (Homo sapiens, UniProt Q96RR4) | 110%
cGMP-dependent protein kinase 1, isoform beta (PRKG1, Homo sapiens, UniProt Q13976) | 88.8%
MAP3K3 (Homo sapiens, UniProt Q99759) | 102%
NEK2 (Homo sapiens, UniProt P51955) | 105%

Excerpt of the above (set 2):
target | read-out | remaining binding [%]
PIK3CA (Homo sapiens, UniProt P42336, C420R) | cell-free assay | 85.4
MAP3K12 (Homo sapiens, UniProt Q12852) | cell-free assay | 82.5
MAP3K4 (Homo sapiens, UniProt Q9Y6R4) | cell-free assay | 98.1
FLT3 (Homo sapiens, UniProt P36888) | cell-free assay | 100
PRKCH (Homo sapiens, UniProt P24723) | cell-free assay | 99.5
EGFR (Homo sapiens, UniProt P00533, G719S) | cell-free assay | 94.8
PDPK1 (Homo sapiens, UniProt O15530) | cell-free assay | 100
